# Published values gathered from unrelated publications.
# Numbered parts are unrelated; each lists some results of a single study.
# UniProt O14920, sequence (whole entry, looked up): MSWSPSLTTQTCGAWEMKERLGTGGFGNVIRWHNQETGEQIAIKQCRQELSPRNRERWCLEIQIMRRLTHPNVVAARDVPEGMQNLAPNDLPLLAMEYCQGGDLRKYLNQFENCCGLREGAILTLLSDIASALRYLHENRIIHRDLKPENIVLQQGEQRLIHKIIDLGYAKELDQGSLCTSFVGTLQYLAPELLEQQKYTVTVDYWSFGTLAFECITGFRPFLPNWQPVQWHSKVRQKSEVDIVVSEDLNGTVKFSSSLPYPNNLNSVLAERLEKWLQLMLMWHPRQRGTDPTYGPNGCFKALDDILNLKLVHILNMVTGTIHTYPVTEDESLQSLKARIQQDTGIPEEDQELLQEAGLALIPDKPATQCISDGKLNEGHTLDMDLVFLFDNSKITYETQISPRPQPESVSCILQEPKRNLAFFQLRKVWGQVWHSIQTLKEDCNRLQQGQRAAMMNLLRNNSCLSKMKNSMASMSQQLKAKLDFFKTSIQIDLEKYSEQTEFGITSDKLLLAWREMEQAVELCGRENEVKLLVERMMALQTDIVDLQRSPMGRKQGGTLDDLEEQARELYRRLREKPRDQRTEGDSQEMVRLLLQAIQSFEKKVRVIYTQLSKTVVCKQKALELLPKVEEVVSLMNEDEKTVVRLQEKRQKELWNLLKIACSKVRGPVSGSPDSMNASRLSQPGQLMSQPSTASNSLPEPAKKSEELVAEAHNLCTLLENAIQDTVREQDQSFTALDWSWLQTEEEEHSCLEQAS
# UniProt P45984, sequence (whole entry, looked up): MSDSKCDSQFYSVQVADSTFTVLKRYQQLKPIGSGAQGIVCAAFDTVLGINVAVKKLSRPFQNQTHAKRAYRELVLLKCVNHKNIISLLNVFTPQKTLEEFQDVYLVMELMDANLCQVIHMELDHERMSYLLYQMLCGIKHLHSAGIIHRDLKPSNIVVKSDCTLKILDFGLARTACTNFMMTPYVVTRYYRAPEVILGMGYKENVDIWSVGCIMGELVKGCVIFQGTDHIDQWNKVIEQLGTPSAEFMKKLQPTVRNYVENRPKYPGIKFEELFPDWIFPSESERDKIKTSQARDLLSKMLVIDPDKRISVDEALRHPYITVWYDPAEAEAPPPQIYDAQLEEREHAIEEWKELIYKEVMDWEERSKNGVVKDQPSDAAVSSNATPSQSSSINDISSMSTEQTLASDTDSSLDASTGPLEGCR
# UniProt Q00535, sequence (whole entry, looked up): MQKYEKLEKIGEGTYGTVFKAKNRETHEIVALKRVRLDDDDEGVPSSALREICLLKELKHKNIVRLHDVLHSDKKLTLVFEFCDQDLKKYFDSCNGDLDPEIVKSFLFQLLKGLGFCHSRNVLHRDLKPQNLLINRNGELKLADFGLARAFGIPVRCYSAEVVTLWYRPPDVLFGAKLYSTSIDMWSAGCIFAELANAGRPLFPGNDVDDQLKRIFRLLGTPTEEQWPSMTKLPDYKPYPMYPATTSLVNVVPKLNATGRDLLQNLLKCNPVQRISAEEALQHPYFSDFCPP
# UniProt P37173, sequence (whole entry, looked up): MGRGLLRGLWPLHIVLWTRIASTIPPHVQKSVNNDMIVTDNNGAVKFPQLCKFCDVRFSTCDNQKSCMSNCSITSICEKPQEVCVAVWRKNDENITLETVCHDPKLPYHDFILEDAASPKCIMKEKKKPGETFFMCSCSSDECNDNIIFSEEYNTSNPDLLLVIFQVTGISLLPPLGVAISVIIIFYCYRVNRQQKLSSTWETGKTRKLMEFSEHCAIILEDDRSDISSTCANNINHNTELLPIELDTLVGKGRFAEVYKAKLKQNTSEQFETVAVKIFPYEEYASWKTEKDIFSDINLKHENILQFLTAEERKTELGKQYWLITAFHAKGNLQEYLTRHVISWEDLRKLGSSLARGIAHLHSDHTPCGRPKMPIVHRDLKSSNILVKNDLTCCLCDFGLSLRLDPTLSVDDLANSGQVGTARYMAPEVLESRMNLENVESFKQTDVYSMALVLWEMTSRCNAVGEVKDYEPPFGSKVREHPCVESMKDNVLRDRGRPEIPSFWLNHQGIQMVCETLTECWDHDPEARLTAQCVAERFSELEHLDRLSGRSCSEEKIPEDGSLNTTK
# UniProt Q96RR4, sequence (whole entry, looked up): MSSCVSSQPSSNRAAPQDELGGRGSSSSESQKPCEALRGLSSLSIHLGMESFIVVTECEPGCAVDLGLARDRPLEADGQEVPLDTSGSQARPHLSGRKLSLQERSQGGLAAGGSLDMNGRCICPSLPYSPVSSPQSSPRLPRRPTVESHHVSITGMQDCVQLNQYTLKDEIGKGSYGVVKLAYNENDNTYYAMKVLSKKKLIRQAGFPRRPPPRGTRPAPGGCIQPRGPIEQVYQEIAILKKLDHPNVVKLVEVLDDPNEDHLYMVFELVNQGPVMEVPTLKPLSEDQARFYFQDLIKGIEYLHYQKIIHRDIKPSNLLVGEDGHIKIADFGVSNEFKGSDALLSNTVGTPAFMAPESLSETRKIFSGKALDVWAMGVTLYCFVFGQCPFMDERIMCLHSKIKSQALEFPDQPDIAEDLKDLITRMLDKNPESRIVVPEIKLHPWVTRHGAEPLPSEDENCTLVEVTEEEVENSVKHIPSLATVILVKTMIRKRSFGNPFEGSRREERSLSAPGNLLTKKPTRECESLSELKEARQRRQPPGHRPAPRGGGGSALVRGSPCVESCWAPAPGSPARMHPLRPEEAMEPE
# UniProt Q9UIK4, sequence (whole entry, looked up): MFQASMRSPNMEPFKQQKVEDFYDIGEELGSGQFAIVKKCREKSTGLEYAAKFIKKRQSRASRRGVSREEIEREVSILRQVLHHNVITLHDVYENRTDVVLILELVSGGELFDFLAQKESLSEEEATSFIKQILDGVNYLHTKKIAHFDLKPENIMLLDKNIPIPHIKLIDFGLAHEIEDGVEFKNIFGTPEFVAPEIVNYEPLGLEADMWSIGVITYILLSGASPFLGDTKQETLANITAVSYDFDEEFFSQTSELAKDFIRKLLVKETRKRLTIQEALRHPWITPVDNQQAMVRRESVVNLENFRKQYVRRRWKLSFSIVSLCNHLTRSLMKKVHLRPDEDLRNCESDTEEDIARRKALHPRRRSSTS
# UniProt Q13557, sequence (whole entry, looked up): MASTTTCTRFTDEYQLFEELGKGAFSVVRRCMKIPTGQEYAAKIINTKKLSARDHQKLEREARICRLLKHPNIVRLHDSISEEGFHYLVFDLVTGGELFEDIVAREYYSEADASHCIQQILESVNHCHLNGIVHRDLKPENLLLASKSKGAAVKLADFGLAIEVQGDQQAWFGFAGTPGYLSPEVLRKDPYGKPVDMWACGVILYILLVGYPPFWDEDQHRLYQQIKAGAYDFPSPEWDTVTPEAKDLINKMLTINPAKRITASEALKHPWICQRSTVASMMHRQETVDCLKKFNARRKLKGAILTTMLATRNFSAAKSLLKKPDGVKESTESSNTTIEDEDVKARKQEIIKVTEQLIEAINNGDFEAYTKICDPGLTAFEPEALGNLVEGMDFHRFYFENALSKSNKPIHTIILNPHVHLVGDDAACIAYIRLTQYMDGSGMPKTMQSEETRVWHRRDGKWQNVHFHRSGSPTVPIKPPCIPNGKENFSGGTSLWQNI
# UniProt P11802, sequence (whole entry, looked up): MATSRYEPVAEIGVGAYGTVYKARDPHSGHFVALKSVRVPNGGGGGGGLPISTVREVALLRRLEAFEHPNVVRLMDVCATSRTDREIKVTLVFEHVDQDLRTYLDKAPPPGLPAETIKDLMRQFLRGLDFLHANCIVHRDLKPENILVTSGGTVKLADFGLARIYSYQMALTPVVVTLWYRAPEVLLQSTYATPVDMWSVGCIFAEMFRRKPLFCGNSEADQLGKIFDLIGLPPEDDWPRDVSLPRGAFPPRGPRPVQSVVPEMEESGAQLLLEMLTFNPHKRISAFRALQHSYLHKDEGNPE

# Study 1
# Target: D(3) dopamine receptor (DRD3, Homo sapiens, UniProt P35462)
# UniProt P35462, sequence (whole entry, looked up): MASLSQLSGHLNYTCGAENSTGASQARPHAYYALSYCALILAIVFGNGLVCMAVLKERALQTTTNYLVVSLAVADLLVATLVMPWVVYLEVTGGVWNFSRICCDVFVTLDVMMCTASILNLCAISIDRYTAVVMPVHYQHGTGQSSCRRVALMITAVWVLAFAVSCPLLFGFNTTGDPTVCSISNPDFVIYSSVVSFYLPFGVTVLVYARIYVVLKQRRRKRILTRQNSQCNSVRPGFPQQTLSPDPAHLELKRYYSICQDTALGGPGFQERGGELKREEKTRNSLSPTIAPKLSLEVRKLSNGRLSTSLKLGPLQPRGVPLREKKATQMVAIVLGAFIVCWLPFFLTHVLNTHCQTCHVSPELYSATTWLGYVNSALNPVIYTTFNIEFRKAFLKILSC
# Read-out: ligand displacement
# Tested at: 10 µM
SMILES,inhibition
COc1cc(C(=O)O)ncc1C#Cc1ccccc1NS(=O)(=O)c1cccc2c(N(C)C)ccnc12,-9.21%
O=S(=O)(NC1CCC(c2cc(F)ccc2F)(S(=O)(=O)c2ccc(Cl)cc2)CC1)C(F)(F)F (centres unmarked),21.7%
CN1CCN(c2cnc3c(C4CCN(C(=O)c5ccc(OC(F)(F)F)cc5N)CC4)ncnc3c2)CC1,7.59%
O=C(N[C@H]1CCCCC/C=C\C2C[C@@]2(C(=O)O)NC(=O)[C@@H]2C[C@@H](Oc3ccncc3)CN2C1=O)OC1CCCC1 (some centres unmarked),12.7%
CN(C)C(=O)c1sc2nc(N3CCC(S(C)(=O)=O)CC3)cc(C(F)(F)F)c2c1N,-12.5%
O=C1NC(c2ccccn2)Sc2ccccc21 (centres unmarked),27.8%
CN1CCN(C(=O)C(C)(C)c2ccc(C(=O)Nc3cn4cc(-c5cc(C(C)(C)C)cc(C(C)(C)C)c5)ccc4n3)cc2)CC1,78.9%
O=C(Nc1ccc(Oc2ccc(F)cc2)cc1)N1CCc2ncccc2[C@H]1c1ccc(F)cc1,-2.66%
CS(=O)(=O)N1CCCC(NC(=O)[C@H](CCC2CCCCC2)NC(=O)c2ccc(CNC(=O)c3cnc4ccccn34)cc2)C1 (some centres unmarked),2.38%

# Study 2
# Cell line: HaCaT
# Tested at: 100 µM
# Time: 36 h
Structure (SMILES),viability
C=C1CC[C@H](O)C/C1=C/C=C1\CCC[C@]2(C)[C@@H]([C@H](C)/C=C/[C@H](C)C(C)C)CC[C@@H]12,24.1%
C[C@@H](c1nc(-c2ccc(C#N)cc2)cs1)[C@](O)(Cn1cncn1)c1cc(F)ccc1F,12.4%
CN(C)[C@@H]1C(O)=C(C(N)=O)C(=O)[C@@]2(O)C(O)=C3C(=O)c4c(O)ccc(Cl)c4[C@@H](O)[C@H]3C[C@@H]12,87.8%
CC1(C)O[C@@H]2[C@@H](CO[C@@]3(COS(N)(=O)=O)OC(C)(C)O[C@@H]23)O1,90.2%
NCCCCCC(=O)O,97.5%
CC(C)(Oc1ccc(CCNC(=O)c2ccc(Cl)cc2)cc1)C(=O)O,86.3%

# Study 3
# Structure (SMILES): CCOc1nc(NC(=O)Cc2cc(OC)ccc2OC)cc(N)c1C#N
# Read-out: enzyme activity
# Mode: inhibitor
# Tested at: 0.5 µM
# Relative to: control
target,remaining activity
"Cyclin-dependent kinase 4, with cyclin D1 (CDK4, Homo sapiens, UniProt P11802)",97.6%
"IKBKE (Homo sapiens, UniProt Q14164)",83.7%
"MAP3K3 (Homo sapiens, UniProt Q99759)",97.1%
"DAPK1 (Homo sapiens, UniProt P53355)",99%
"Tyrosine-protein kinase Lyn, isoform B (LYN, Homo sapiens, UniProt P07948)",93.3%
"cGMP-dependent protein kinase 1, isoform beta (PRKG1, Homo sapiens, UniProt Q13976)",96.5%
"TGFBR1 (Homo sapiens, UniProt P36897)",97.8%
"CAMK2D (Homo sapiens, UniProt Q13557)",97.4%
"STK10 (Homo sapiens, UniProt O94804)",97.7%
"Cyclin-dependent kinase 5, with p25 (CDK5, Homo sapiens, UniProt Q00535)",96.8%
"MAPK9 (Homo sapiens, UniProt P45984)",6.45%
"PRKACA (Homo sapiens, UniProt P17612)",104%
"TGFBR2 (Homo sapiens, UniProt P37173)",104%
"CAMKK2 (Homo sapiens, UniProt Q96RR4)",85%
"DAPK2 (Homo sapiens, UniProt Q9UIK4)",104%
"OXSR1 (Homo sapiens, UniProt O95747)",104%
"IKBKB (Homo sapiens, UniProt O14920)",102%
"GRK3 (Homo sapiens, UniProt P35626)",106%
"CHEK2 (Homo sapiens, UniProt O96017)",102%
"PRKCA (Homo sapiens, UniProt P17252)",99.9%
"NEK2 (Homo sapiens, UniProt P51955)",87.7%
"Protein kinase C beta type, isoform beta-I (PRKCB, Homo sapiens, UniProt P05771)",97.5%

# Study 4
# Cell line: mouse MPNST tumor cells
# Technique: high-content nuclear imaging
# Measured: cell number
# Tested at: 10 µM
# Time: 12 h
# Setting: mean of 2 replicates
# Relative to: plate mean
# Direction: higher = more cells
Compound,nuclei count [z-score]
Nc1ncnc2c1c(COc1cccc(Cl)c1)nn2C1CCOCC1,0.656
CCOc1nc2c(N)ncnc2n1CC,0.908
COc1cccc2c(NCc3ccccc3)nc(-n3c(N)nc4ccccc43)nc12,-5.35
C#CC(=O)N(c1ccc(OC)cc1OC)C(C(=O)NCC(=O)OCC)c1cccs1 (centres unmarked),-5.41
CCn1c(-c2nonc2N)nc2c(C#CC(C)(C)O)ncc(OC[C@H]3CCCNC3)c21,3.56
CC1(C)CCC(C)(C)c2cc(C(=O)Nc3ccc(C(=O)O)cc3)ccc21,-0.252
Cn1ccc2cc(NC(=O)Nc3cccnc3)ccc21,1.35

# A few entries again (study 3):
target,remaining activity
"CAMK2D (Homo sapiens, UniProt Q13557)",97.4%
"TGFBR2 (Homo sapiens, UniProt P37173)",104%
"CAMKK2 (Homo sapiens, UniProt Q96RR4)",85%
"MAPK9 (Homo sapiens, UniProt P45984)",6.45%
"GRK3 (Homo sapiens, UniProt P35626)",106%
"IKBKE (Homo sapiens, UniProt Q14164)",83.7%
